# Literature values, collected from citations in different studies.
# Lines come from different studies, so protocols differ.
SMILES,target or system,assay,conditions,scale,measurement,result
COCCOC(=O)C1=C(C)NC(C)=C(C(=O)OC(C)C)C1c1cccc([N+](=O)[O-])c1 (stereo not drawn),Toxoplasma gondii,parasite growth,"concentration not given, drug repurposing screen",,activity class,inactive
Cc1nc(NCc2cnccn2)ncc1C(=O)N1CCC2(CCOCC2)C1,VNN1 (human),enzyme activity,,,IC50,17600 nM
C[C@H]1O[C@H](O[C@H]2[C@H](O)[C@@H](O)[C@@H](O[C@H]3[C@H](O)[C@@H](O)C(O)O[C@@H]3CO)O[C@@H]2CO)[C@H](O)[C@@H](O)[C@@H]1N[C@H]1C=C(CO)[C@@H](O)[C@H](O)[C@H]1O (stereo partly drawn),Toxoplasma gondii,parasite growth,"concentration not given, drug repurposing screen",,activity class,inactive
Cc1ccccc1Oc1cc(-n2c(=O)cc(C(F)(F)F)[nH]c2=O)c2ccccc2c1,BCAT1,cellular activity,,,IC50,6200 nM
CCCCCCCCNC(C)C(O)c1ccc(SC(C)C)cc1 (stereo not drawn),MCF7,"microarray, item: SQLE mRNA",concentration not given,reference: DMSO,log2 fold change,2.16
Cc1ncc(-c2cc(Cl)ccc2F)cc1-n1c(=O)n(CC(N)=O)c2ccccc21,ACVR1B,cell-based,,,IC50,> 10000 nM
CS(=O)(=O)c1ccc(-c2c(-c3ccccc3)[nH]c3ccccc23)cc1,COX-2,,,,IC50,0.22 nM
CN(C)c1ncnc(-c2ccc3nc(Nc4cc(CN5CCN(C(=O)CC(F)(F)F)CC5)ccn4)[nH]c3c2)c1Cl,IKBKE,,low ATP,,IC50,1280 nM
Cc1ccc2[nH]c(-c3ccc(S(N)(=O)=O)cc3)c(-c3ccccc3)c2c1,COX-2,,,,IC50,0.02 nM
